{"data": "Results pooled from the literature", "note": "Lines come from different studies, so protocols differ. ± gives the spread as reported.", "UniProt P35348, sequence (whole entry, looked up)": "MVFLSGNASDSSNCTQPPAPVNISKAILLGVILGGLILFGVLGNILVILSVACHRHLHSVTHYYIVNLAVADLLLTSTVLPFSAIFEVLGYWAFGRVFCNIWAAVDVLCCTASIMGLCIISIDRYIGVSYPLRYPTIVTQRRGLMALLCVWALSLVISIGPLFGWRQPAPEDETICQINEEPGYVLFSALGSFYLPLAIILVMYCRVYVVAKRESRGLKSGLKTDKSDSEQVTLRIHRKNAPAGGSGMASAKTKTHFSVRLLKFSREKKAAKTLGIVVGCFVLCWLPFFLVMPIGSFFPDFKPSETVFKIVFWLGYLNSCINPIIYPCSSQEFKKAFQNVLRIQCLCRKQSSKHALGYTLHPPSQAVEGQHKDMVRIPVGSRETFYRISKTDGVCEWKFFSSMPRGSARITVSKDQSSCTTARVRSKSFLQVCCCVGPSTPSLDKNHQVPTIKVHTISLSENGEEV", "UniProt O96028, sequence (whole entry, looked up)": "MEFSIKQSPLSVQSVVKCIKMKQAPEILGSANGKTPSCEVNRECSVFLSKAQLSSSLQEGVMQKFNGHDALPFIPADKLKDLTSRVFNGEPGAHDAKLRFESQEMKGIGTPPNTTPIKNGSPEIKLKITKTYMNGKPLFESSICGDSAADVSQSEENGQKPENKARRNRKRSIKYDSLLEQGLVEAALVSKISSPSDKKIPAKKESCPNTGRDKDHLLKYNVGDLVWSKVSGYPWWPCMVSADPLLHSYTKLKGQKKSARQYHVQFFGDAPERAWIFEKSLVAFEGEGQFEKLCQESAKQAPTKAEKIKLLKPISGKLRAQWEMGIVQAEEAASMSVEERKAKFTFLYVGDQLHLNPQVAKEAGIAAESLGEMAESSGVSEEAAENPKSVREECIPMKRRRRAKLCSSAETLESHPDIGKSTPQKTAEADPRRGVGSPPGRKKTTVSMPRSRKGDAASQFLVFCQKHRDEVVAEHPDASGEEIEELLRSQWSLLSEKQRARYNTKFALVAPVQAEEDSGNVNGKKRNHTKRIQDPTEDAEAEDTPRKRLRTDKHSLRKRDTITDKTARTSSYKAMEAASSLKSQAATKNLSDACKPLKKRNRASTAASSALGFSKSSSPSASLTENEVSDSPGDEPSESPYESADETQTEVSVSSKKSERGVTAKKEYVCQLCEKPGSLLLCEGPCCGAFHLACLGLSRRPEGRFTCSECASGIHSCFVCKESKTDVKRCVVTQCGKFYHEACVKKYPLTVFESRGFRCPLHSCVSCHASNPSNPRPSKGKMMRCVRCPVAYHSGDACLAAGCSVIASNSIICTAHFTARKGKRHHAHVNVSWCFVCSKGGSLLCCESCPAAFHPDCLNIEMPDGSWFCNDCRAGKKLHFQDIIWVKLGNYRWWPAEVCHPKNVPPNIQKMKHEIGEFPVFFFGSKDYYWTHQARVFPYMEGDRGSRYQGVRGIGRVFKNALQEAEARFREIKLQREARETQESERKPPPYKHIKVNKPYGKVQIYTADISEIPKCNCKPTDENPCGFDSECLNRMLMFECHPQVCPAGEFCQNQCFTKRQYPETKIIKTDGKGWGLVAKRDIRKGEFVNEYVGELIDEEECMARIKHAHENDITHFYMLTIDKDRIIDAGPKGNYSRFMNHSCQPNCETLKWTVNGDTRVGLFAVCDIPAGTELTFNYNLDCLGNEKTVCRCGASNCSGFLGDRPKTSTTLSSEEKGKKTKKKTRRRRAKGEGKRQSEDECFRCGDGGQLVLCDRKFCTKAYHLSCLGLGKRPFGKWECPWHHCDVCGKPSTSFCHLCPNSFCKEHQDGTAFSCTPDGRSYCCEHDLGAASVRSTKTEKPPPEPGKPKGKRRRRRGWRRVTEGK", "UniProt Q9NWZ3, sequence (whole entry, looked up)": "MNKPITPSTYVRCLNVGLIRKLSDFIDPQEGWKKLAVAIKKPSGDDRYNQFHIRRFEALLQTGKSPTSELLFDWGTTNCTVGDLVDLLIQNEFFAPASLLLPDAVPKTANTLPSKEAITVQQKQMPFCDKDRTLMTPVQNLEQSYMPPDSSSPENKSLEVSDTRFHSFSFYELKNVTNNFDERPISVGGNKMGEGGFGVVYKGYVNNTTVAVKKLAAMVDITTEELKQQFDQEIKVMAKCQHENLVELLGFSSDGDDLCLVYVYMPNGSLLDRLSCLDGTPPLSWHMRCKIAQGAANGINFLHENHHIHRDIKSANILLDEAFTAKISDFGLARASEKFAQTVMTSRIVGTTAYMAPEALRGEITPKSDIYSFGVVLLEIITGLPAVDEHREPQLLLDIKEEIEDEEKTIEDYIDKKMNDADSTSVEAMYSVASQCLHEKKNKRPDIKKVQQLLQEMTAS", "UniProt P28221, sequence (whole entry, looked up)": "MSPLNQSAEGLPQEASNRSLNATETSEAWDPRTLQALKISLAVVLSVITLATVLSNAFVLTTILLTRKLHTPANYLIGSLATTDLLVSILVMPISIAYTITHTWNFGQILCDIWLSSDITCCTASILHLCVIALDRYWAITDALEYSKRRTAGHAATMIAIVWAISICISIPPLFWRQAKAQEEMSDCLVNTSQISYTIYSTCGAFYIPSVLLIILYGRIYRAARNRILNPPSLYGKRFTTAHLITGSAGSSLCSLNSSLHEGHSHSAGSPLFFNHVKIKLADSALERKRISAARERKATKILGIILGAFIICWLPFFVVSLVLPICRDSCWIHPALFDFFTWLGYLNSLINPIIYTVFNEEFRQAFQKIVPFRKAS", "UniProt P06276, sequence (whole entry, looked up)": "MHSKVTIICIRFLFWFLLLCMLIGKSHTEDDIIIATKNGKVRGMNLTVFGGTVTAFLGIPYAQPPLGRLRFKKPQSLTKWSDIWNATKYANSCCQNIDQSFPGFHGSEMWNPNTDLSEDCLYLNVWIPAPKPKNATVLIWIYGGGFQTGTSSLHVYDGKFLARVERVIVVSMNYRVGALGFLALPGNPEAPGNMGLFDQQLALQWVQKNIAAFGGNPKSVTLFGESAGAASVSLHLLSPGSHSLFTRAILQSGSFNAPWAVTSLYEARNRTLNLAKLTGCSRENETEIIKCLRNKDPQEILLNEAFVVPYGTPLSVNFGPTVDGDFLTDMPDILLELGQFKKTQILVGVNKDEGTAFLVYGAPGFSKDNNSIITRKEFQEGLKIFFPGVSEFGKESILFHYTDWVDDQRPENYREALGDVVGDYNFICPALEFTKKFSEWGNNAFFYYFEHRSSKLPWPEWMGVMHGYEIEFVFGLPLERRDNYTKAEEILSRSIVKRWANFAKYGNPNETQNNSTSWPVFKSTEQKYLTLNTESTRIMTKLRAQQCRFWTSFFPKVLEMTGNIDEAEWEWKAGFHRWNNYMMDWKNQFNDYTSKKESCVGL", "UniProt P35462, sequence (whole entry, looked up)": "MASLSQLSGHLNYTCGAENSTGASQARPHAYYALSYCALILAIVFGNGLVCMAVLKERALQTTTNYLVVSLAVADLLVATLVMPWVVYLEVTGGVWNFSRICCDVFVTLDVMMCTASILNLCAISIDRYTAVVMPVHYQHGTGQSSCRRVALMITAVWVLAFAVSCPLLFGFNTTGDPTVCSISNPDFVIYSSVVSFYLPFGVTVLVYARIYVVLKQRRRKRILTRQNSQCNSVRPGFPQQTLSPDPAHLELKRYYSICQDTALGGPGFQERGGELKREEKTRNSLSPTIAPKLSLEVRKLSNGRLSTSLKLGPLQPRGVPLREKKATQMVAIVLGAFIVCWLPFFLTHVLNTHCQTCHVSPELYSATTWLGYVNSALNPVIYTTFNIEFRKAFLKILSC", "UniProt Q9HBY8, sequence (whole entry, looked up)": "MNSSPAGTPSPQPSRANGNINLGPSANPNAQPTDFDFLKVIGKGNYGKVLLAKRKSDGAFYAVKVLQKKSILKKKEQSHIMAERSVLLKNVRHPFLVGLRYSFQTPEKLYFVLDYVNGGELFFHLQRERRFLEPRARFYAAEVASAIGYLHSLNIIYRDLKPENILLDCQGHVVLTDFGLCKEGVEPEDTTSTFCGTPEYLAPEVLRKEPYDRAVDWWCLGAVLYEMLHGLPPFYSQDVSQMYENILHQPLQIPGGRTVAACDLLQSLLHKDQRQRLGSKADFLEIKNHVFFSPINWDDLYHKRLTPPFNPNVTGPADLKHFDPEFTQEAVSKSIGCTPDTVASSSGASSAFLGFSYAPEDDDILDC", "UniProt O15379, sequence (whole entry, looked up)": "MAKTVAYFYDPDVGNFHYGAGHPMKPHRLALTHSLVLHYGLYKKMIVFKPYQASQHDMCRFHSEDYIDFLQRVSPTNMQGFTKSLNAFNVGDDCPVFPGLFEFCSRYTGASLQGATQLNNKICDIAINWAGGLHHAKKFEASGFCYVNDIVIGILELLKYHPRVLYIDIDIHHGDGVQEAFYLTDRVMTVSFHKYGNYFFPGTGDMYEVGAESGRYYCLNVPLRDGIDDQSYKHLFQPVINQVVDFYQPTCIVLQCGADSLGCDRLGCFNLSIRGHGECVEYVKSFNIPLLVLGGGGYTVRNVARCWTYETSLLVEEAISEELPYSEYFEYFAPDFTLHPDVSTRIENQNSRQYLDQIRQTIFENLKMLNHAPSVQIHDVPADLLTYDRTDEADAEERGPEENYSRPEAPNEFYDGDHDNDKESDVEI", "UniProt P48775, sequence (whole entry, looked up)": "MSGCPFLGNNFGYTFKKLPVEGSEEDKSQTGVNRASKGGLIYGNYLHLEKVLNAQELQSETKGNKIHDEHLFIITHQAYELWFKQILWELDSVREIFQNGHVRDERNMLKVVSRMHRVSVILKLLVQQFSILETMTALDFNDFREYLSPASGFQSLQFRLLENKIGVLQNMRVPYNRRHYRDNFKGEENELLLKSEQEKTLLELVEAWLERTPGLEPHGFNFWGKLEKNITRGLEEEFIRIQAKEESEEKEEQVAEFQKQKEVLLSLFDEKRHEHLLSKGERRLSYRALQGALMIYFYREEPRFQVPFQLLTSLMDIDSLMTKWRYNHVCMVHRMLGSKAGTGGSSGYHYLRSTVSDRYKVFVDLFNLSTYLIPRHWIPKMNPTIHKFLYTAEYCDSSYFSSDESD"}
{"SMILES": "CN(C)[C@H]1C[C@@]23CC[C@@]4(O2)C(=CC[C@]2(C)[C@@H](c5ccc6ccncc6c5)CC[C@H]24)C=C3[C@@H](O)[C@@H]1O", "tested on": "PIK3CB (Homo sapiens, UniProt P42338)", "test": "ATP probe labelling, inhibitor, KiNativ profiling", "conditions": "0.1 µM", "endpoint": "inhibition", "value": "0.1%"}
{"SMILES": "CN(/N=C/c1ccccc1C(=O)O)c1nc(-c2ccccc2Cl)cs1", "tested on": "MAPK13 (Homo sapiens, UniProt O15264)", "test": "enzyme activity, inhibitor", "conditions": "1 µM", "endpoint": "inhibition", "value": "1.2%"}
{"SMILES": "C[C@H](NCc1ccc(-c2ccc(C(F)(F)F)cc2)cc1)C(N)=O", "tested on": "L-type calcium channel benzothiazepine site, rat", "test": "binding, radioligand binding", "system": "biochemical", "conditions": "1 µM, with: [3H]diltiazem 2.0 nM", "endpoint": "inhibition", "value": "-8%"}
{"SMILES": "Cc1ccccc1C=Cc1nnc([C@H]2OCC[C@H]2Cn2ccnc2)o1", "tested on": "Cholinesterase (BCHE, Homo sapiens, UniProt P06276)", "test": "enzyme activity, inhibitor, Ellman", "conditions": "10 µM", "endpoint": "inhibition", "value": "2.9%"}
{"SMILES": "COCC(=O)N1CCc2cc(-c3csc(NC(=O)c4cc(OC)cc(OC)c4)n3)ccc21", "tested on": "GABA-A receptor benzodiazepine site, rat brain", "test": "radioligand binding, inhibitor", "conditions": "10 µM, with: [3H]flunitrazepam", "endpoint": "inhibition", "value": "-5%"}
{"SMILES": "CS(C)(=O)=Nc1ccc(-c2ccc(-c3nc4cc(O[C@@H]5CO[C@H]6[C@@H]5OC[C@H]6O)[nH]c4cc3F)cc2)cc1", "tested on": "STK11 (Homo sapiens, UniProt Q15831)", "test": "enzyme activity, inhibitor", "conditions": "10 µM", "endpoint": "inhibition", "value": "33%"}
{"SMILES": "C=CC(=O)Nc1cc(-c2nn(C3CCC(N4CCN(C(C)=O)CC4)CC3)c3ncnc(N)c23)ccc1Oc1ccccc1 (centres unmarked)", "tested on": "Ribosomal protein S6 kinase alpha-5, N-terminal kinase domain (RPS6KA5, Homo sapiens, UniProt O75582)", "test": "inhibitor, KiNativ profiling", "system": "biochemical", "conditions": "2 µM", "endpoint": "inhibition", "value": "12.9%"}
{"SMILES": "O=C(O)CCn1c(=O)oc2cc(Cl)c(Cl)cc21", "tested on": "TDO2 (Homo sapiens, UniProt P48775)", "conditions": "100 µM", "endpoint": "inhibition", "value": "5%"}
{"SMILES": "CN[C@@H]1[C@H](O)[C@H](NC)[C@H]2O[C@]3(O)[C@H](O[C@@H]2[C@H]1O)O[C@H](C)C[C@H]3NC(=O)Cc1ccc(Cl)cn1", "tested on": "DRD3 (Homo sapiens, UniProt P35462)", "test": "ligand displacement, radioligand", "conditions": "10 µM", "endpoint": "inhibition", "value": "10%"}
{"SMILES": "O=C(CN1CN(c2ccccc2)C2(CCN(C(=O)c3cnc4[nH]ncc4c3)CC2)C1=O)NCC(F)(F)F", "tested on": "IRAK4 (Homo sapiens, UniProt Q9NWZ3)", "test": "inhibitor", "conditions": "concentration not given", "endpoint": "inhibition", "value": "< 50%"}
{"SMILES": "N[C@H](C(=O)N1CCCC1)C1CCN(c2nccc3c(-c4ncc(Cl)cc4Cl)cccc23)CC1", "tested on": "NMDA receptor PCP site", "test": "binding, radioligand binding", "conditions": "10 µM", "endpoint": "inhibition", "value": "11%"}
{"SMILES": "N#Cc1ccc(N2N=C3c4ccc(C(=O)O)cc4CCC3C2C2CCCC2)cc1Cl (centres unmarked)", "tested on": "NSD2 (Homo sapiens, UniProt O96028)", "test": "enzyme activity, inhibitor", "conditions": "10 µM", "endpoint": "inhibition", "value": "28%"}
{"SMILES": "O=C(O)c1ccccc1/C=N/Nc1nc(-c2ccccc2Cl)cs1", "tested on": "ERBB4 (Homo sapiens, UniProt Q15303)", "test": "enzyme activity, inhibitor", "conditions": "1 µM", "endpoint": "inhibition", "value": "-3.26%"}
{"SMILES": "CCc1nnc(-c2c(OC)cc(-c3cnc4cc(-c5cnn(C)c5)ccn34)cc2OC)o1", "tested on": "ADRA1A (Homo sapiens, UniProt P35348)", "test": "antagonist radioligand, radioligand binding", "conditions": "10 µM, SafetyScreen44 alpha 1 A", "endpoint": "inhibition", "value": "41%"}
{"SMILES": "O=C1NC2(CC2)COc2ncc(F)cc2[C@H]2COCCN2c2ccn3ncc1c3n2", "system": "Sprague-Dawley rat, male, serum", "conditions": "oral, 20 mg/kg/day, 4 weeks daily, end of recovery period", "endpoint": "albumin", "value": "37.2 ± 1.7 g/L"}
{"SMILES": "CCCCNC(=O)c1ccc2nc(CC)c(N(C)Cc3ccc(OC)cc3)n2c1", "tested on": "ACHE (Homo sapiens, UniProt P22303)", "test": "enzyme activity, inhibitor", "system": "SH-SY5Y", "conditions": "1.5 × IC50", "endpoint": "inhibition", "value": "60%"}
{"SMILES": "O=C(CCCCCCC(=O)Nc1ccccc1)NO", "tested on": "HDAC3 (Homo sapiens, UniProt O15379)", "test": "enzyme activity, inhibitor", "conditions": "1 µM", "endpoint": "inhibition", "value": "96.6%"}
{"SMILES": "COc1ccc(F)cc1S(=O)(=O)Nc1cnc2c(c1)C(=O)NCCO2", "tested on": "NMDA receptor Phencyclidine site", "test": "radioligand binding", "conditions": "10 µM", "endpoint": "inhibition", "value": "-1%"}
{"SMILES": "CC(C)[C@H]1NC(=O)C[C@H]2/C=C/CCSSC[C@@H](NC1=O)C(=O)N[C@H](Cc1cccc3ccccc13)C(=O)NCC(=O)O2", "tested on": "SGK2 (Homo sapiens, UniProt Q9HBY8)", "test": "enzyme activity, inhibitor", "conditions": "10 µM", "endpoint": "inhibition", "value": "1.6%"}
{"SMILES": "O=C1c2ccccc2CCCN1CCCCN1CCN(c2cccc(Cl)c2Cl)CC1", "tested on": "HTR1D (Homo sapiens, UniProt P28221)", "test": "radioligand binding", "conditions": "concentration not given, with: [3H]5-CT", "endpoint": "inhibition", "value": "97.5%"}
{"note": "Excerpt of the above:"}
{"SMILES": "O=C(O)c1ccccc1/C=N/Nc1nc(-c2ccccc2Cl)cs1", "tested on": "ERBB4 (Homo sapiens, UniProt Q15303)", "test": "enzyme activity, inhibitor", "conditions": "1 µM", "endpoint": "inhibition", "value": "-3.26%"}
{"SMILES": "CCc1nnc(-c2c(OC)cc(-c3cnc4cc(-c5cnn(C)c5)ccn34)cc2OC)o1", "tested on": "ADRA1A (Homo sapiens, UniProt P35348)", "test": "antagonist radioligand, radioligand binding", "conditions": "10 µM, SafetyScreen44 alpha 1 A", "endpoint": "inhibition", "value": "41%"}
